Assay results of several laboratories.
Every numbered part comes from another study and shows a few of its results, in no order.
UniProt P10721, sequence (whole entry, unmodified, looked up): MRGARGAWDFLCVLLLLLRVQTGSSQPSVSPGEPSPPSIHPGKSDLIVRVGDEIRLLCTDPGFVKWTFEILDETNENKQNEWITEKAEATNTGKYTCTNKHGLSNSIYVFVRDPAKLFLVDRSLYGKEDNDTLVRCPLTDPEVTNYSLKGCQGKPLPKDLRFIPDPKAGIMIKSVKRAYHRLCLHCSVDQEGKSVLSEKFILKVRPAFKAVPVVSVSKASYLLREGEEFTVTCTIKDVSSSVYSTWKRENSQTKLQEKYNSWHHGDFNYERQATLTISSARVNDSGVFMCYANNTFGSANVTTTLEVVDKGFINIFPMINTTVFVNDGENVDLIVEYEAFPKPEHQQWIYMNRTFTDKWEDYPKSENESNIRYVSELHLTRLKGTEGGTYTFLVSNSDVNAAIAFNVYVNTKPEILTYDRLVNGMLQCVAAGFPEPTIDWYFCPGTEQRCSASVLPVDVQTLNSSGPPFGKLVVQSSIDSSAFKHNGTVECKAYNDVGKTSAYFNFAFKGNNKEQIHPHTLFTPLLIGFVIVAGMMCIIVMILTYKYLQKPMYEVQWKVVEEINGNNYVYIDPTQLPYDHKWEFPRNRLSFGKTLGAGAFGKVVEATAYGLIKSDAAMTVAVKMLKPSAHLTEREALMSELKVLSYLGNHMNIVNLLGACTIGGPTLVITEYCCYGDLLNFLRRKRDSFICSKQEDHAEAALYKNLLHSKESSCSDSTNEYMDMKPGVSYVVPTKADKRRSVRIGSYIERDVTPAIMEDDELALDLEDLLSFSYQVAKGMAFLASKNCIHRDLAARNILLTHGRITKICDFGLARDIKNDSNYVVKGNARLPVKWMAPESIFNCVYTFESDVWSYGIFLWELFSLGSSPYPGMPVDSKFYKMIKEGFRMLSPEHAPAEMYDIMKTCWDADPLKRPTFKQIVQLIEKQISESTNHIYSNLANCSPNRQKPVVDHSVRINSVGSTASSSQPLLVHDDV
UniProt Q99558, sequence (whole entry, looked up): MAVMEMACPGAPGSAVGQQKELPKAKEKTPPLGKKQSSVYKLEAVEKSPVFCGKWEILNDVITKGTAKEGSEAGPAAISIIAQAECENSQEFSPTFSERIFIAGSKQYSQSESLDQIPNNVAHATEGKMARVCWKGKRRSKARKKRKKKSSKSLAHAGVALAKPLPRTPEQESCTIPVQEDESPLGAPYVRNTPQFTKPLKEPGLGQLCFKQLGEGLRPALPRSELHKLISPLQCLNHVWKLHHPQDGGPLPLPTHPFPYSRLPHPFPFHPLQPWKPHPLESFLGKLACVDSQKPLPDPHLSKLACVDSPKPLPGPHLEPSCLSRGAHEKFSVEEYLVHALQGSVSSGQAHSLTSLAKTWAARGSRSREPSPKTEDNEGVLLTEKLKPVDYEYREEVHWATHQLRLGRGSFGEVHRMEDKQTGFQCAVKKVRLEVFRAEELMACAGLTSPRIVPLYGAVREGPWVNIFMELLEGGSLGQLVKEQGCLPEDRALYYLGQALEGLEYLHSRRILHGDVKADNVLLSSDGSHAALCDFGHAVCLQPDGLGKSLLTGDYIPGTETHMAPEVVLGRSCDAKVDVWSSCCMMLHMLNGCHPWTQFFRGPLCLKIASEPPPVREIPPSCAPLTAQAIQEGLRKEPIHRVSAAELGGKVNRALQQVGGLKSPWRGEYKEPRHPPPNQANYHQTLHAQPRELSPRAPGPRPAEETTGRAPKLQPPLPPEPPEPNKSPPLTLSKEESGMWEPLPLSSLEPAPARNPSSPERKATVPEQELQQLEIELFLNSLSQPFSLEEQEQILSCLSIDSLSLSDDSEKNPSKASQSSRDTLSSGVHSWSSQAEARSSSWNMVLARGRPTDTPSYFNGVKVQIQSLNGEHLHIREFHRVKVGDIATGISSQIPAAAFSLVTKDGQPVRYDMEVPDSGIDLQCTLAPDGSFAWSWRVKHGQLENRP
UniProt P07947, sequence (whole entry, looked up): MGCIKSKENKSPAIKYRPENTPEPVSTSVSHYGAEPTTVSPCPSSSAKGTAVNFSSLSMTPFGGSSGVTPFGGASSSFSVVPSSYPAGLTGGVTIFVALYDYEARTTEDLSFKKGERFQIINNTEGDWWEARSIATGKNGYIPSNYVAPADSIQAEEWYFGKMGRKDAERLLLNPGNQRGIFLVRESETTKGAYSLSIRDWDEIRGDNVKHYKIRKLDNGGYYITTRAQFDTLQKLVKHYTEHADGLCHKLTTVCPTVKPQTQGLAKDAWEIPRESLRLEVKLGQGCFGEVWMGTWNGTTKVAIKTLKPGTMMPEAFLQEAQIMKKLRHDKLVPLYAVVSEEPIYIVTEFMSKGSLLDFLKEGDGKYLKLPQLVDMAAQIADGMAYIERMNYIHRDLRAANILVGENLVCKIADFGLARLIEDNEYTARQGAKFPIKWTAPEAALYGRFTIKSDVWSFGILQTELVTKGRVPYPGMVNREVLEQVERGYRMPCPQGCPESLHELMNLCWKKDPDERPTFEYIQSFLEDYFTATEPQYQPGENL
UniProt Q04759, sequence (whole entry, looked up): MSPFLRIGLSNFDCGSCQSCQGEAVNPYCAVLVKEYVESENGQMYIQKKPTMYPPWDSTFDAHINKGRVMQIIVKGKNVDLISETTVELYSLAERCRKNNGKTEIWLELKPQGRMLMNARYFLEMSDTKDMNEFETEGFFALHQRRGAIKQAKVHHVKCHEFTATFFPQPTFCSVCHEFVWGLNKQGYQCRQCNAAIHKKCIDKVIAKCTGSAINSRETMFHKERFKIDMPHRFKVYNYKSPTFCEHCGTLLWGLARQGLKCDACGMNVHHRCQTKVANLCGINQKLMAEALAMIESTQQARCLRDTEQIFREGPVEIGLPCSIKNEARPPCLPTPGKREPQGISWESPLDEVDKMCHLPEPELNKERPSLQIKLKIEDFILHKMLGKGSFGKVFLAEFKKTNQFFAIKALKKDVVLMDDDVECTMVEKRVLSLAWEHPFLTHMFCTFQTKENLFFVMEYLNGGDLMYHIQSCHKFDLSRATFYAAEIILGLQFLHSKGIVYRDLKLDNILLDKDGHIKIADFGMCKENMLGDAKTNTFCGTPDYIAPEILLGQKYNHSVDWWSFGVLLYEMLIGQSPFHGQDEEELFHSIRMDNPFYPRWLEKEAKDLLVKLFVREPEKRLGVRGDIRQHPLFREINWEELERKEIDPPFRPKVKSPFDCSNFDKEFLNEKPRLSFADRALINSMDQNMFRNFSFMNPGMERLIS
UniProt O00329, sequence (whole entry, looked up): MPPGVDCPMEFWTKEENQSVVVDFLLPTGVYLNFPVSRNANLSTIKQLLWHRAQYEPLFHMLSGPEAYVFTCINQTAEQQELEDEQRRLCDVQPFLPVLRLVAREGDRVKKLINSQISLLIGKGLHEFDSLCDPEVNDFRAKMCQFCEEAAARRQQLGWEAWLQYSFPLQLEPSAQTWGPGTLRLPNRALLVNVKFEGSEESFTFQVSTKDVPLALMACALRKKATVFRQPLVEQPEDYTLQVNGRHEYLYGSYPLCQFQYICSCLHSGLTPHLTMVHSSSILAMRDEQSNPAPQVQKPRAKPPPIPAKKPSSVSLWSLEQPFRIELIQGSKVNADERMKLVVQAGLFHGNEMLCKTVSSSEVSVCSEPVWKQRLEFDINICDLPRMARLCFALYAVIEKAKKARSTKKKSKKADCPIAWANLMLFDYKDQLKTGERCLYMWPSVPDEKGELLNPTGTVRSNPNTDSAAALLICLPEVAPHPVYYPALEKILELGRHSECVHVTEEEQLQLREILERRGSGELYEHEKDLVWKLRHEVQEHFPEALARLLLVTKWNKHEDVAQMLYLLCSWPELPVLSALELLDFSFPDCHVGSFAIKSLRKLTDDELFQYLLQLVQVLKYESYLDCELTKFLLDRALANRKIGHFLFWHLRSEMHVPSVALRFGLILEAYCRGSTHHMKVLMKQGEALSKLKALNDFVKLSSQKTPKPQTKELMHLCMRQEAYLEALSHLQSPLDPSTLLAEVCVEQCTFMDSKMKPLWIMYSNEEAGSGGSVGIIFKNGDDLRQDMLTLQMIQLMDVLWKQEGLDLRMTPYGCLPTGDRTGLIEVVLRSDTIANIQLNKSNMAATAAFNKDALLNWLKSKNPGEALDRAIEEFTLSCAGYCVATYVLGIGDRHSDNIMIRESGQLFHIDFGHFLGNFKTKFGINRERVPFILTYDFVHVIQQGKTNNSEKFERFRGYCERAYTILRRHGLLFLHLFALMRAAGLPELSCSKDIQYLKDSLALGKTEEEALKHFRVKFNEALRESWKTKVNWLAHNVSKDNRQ

Series 1 — read-out: cell-free assay; technique: competition with immobilised ligand; concentration: 1 µM
SMILES: O=C(Nc1cccnn1)N1CC(C/C=C/c2cncc(Oc3ccc(C(F)(F)F)cn3)n2)C1
| target | remaining binding [%] |
| --- | --- |
| Tyrosine-protein kinase ABL1, phosphorylated (ABL1, Homo sapiens, UniProt P00519, Q252H) | 81 |
| KIT (Homo sapiens, UniProt P10721) | 80 |
| SNRK (Homo sapiens, UniProt Q9NRH2) | 100 |
| BMX (Homo sapiens, UniProt P51813) | 100 |
| Ribosomal protein S6 kinase alpha-2, C-terminal kinase domain (RPS6KA2, Homo sapiens, UniProt Q15349) | 100 |
| KIT (Homo sapiens, UniProt P10721, T670I/V559D) | 100 |
| PIK3CD (Homo sapiens, UniProt O00329) | 64 |
| PIK3C2B (Homo sapiens, UniProt O00750) | 93 |
| STK38 (Homo sapiens, UniProt Q15208) | 99 |
| NLK (Homo sapiens, UniProt Q9UBE8) | 100 |
| KIT (Homo sapiens, UniProt P10721, L576P) | 88 |
| PLK2 (Homo sapiens, UniProt Q9NYY3) | 60 |
| MAP3K11 (Homo sapiens, UniProt Q16584) | 100 |
| Ribosomal protein S6 kinase alpha-3, N-terminal kinase domain (RPS6KA3, Homo sapiens, UniProt P51812) | 73 |
| TNIK (Homo sapiens, UniProt Q9UKE5) | 92 |
| LATS2 (Homo sapiens, UniProt Q9NRM7) | 100 |
| Tyrosine-protein kinase ABL1, non-phosphorylated (ABL1, Homo sapiens, UniProt P00519) | 87 |
| BRSK1 (Homo sapiens, UniProt Q8TDC3) | 100 |
| AKT1 (Homo sapiens, UniProt P31749) | 100 |
| YES1 (Homo sapiens, UniProt P07947) | 100 |
| MAP3K14 (Homo sapiens, UniProt Q99558) | 77 |
| CLK4 (Homo sapiens, UniProt Q9HAZ1) | 98 |
| MET (Homo sapiens, UniProt P08581) | 95 |
| MYLK (Homo sapiens, UniProt Q15746) | 73 |
| PIKFYVE (Homo sapiens, UniProt Q9Y2I7) | 100 |

Series 2 — read-out: enzyme activity; action: inhibitor; concentration: 0.5 µM; reference: control
Target: Testis-specific serine/threonine-protein kinase 1 (TSSK1B, Homo sapiens, UniProt Q9BXA7)
UniProt Q9BXA7, sequence (whole entry, looked up): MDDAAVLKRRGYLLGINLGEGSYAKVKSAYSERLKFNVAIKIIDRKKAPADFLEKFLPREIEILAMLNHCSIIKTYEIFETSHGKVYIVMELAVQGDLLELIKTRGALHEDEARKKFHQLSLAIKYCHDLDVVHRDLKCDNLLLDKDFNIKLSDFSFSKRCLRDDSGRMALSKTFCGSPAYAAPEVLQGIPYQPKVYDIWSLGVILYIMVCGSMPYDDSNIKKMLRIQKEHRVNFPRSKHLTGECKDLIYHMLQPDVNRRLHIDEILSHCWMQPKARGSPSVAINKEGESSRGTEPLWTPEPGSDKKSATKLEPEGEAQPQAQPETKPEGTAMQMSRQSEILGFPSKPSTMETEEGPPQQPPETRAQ
| SMILES | remaining activity |
| --- | --- |
| C[C@@H](N)[C@H]1CC[C@H](C(=O)Nc2ccncc2)CC1 | 103% |
| c1cc(-c2cnn3cc(-c4ccc(OCCN5CCCCC5)cc4)cnc23)ccn1 | 81.1% |
| O=C1c2ccccc2-c2nc3nnnn3nc21 | 88.7% |
| COc1cc2c(Nc3ccc(Br)cc3F)ncnc2cc1OCC1CCN(C)CC1 | 96.6% |
| O=Nc1c(-c2c(O)[nH]c3ccccc23)[nH]c2ccccc12 | 86% |
| CCN(CC)CCCCN1c2ccccc2Oc2ccc(Cl)cc21 | 96.7% |
| N#C/C(=C(/N)SC1C=CC=CC1)c1cccc(C(O)c2ccncc2)c1 (stereo not shown) | 94% |
| FC(F)(F)c1ccc(/C=C/c2nc(COc3ccc(CCCCn4ccnn4)cc3)co2)cc1 | 93.4% |
| O=C(c1ccccc1)c1ccc(N2CCOCC2)cc1O | 107% |
| COc1cc2c(N3CCN(C(=O)Nc4ccc(OC(C)C)cc4)CC3)ncnc2cc1OCCCN1CCCCC1 | 96.8% |
| CC(C)n1cnc2c(Nc3cccc(Cl)c3)nc(NCCO)nc21 | 91.9% |
| NC(=O)c1ccc(-c2nc(-c3ccc4c(c3)OCCO4)c(-c3ccccn3)[nH]2)cc1 | 100% |
| Clc1ccc(Nc2nnc(Cc3ccncc3)c3ccccc23)cc1 | 94.8% |
| O=C(O)/C=C/c1cc(Br)c(Br)c(Br)c1Br | 79.2% |
| CCCCc1c(-c2ccc(O)cc2)[nH]c2nccnc12 | 62% |
| CC(C)N(CCC(=O)c1ccc2ccccc2c1)Cc1ccccc1 | 100% |
| NC(=O)c1cccc(-c2cc(Nc3ccc(OC(F)(F)F)cc3)ncn2)c1 | 95.4% |
| O=C1NC(=O)/C(=C/c2ccc3c(c2)OC(F)(F)O3)S1 | 93.3% |
| CNc1cc2c(Nc3cccc(Br)c3)ncnc2cn1 | 60.2% |
| O=c1c(-c2ccc(F)cc2)c(-c2ccncc2)[nH]n1-c1ccc(Cl)cc1 | 76.2% |
| N#CC(c1ccnc(NCCc2cccnc2)n1)c1nc2ccccc2s1 (stereo not shown) | 99% |
| CC(C)(C)c1nc2c3cc[nH]c(=O)c3c3cc(F)ccc3c2[nH]1 | 37.3% |
| Nc1nc(Nc2ccc(S(N)(=O)=O)cc2)nn1C(=S)Nc1c(F)cccc1F | 13.7% |

Series 3 — action: inhibitor; concentration: 1 µM
SMILES: C=CC(=O)N1CCC[C@@H](n2nc(-c3ccc(Oc4ccccc4)cc3)c3c(N)ncnc32)C1
| target | read-out | inhibition |
| --- | --- | --- |
| Tyrosine-protein kinase ABL1, non-phosphorylated (ABL1, Homo sapiens, UniProt P00519, T315I) |  | 21% |
| PRKCD (Homo sapiens, UniProt Q05655) | enzyme activity | 3% |
| CDK11B (Homo sapiens, UniProt P21127) | enzyme activity | 1% |
| SRPK1 (Homo sapiens, UniProt Q96SB4) | enzyme activity | 2% |
| CDC42BPB (Homo sapiens, UniProt Q9Y5S2) | enzyme activity | 1% |
| CRK2 (Plasmodium falciparum, UniProt P61075) | enzyme activity | 10% |
| OXSR1 (Homo sapiens, UniProt O95747) | enzyme activity | 36% |
| NTRK2 (Homo sapiens, UniProt Q16620) | enzyme activity | 36% |
| EGFR (Homo sapiens, UniProt P00533, del747-750/T751S) |  | 97% |
| PIP4K2B (Homo sapiens, UniProt P78356) | enzyme activity | 50% |
| STK32B (Homo sapiens, UniProt Q9NY57) |  | 21% |
| PRKCQ (Homo sapiens, UniProt Q04759) |  | 33% |
| MST1R (Homo sapiens, UniProt Q04912) | enzyme activity | 8% |
| EPHA3 (Homo sapiens, UniProt P29320) | enzyme activity | 11% |
| KIT (Homo sapiens, UniProt P10721, V559D/V654A) |  | 9% |
| HASPIN (Homo sapiens, UniProt Q8TF76) | enzyme activity | 33% |

Series 4 — read-out: enzyme activity; action: inhibitor; concentration: 10 µM
Target: Calcium/calmodulin-dependent protein kinase type II subunit alpha (CAMK2A, Homo sapiens, UniProt Q9UQM7)
UniProt Q9UQM7, sequence (whole entry, looked up): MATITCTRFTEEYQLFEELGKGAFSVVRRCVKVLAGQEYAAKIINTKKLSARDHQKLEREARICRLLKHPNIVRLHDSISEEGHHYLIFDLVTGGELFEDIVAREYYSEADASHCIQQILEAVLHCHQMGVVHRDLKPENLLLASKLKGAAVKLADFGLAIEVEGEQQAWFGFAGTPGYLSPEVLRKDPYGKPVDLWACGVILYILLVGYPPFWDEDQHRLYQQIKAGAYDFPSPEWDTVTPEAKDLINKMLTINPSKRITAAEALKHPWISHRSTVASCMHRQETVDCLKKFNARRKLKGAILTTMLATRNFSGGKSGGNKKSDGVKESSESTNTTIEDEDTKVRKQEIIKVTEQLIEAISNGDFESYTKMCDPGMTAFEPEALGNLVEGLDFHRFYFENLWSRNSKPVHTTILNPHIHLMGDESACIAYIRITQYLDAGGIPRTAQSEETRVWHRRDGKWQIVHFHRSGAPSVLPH
| Compound | inhibition [%] |
| --- | --- |
| CC(=O)O[C@H]1CC[C@]2(C)[C@H]3CC=C4[C@@H]5[C@@H](C)[C@H](C)CC[C@]5(C(=O)O)CC[C@@]4(C)[C@]3(C)CC[C@H]2C1(C)C | -5 |
| O=C1C[C@@H](c2ccc(O[C@@H]3O[C@H](CO)[C@@H](O)[C@H](O)[C@H]3O[C@@H]3OC[C@](O)(CO)[C@H]3O)cc2)Oc2cc(O)ccc21 | -20 |
| Nc1ccc2cc3ccc(N)cc3nc2c1 | -11 |
| Cc1c(C)c2c(c(C)c1O)CCC(C)(COc1ccc(CC3SC(=O)NC3=O)cc1)O2 (stereo not shown) | 7 |
| CC(=O)[C@H]1CC[C@H]2[C@@H]3CCC4=CC(=O)CC[C@]4(C)[C@H]3CC[C@]12C | 8 |
| CCc1cc2c(cc1CC)CC(NC[C@H](O)c1ccc(O)c3[nH]c(=O)ccc13)C2 | -4 |
| COc1cc(C(O)C(=O)O)ccc1O (stereo not shown) | 38 |
| CC(=O)Oc1ccc(C2(c3ccc(OC(C)=O)cc3)C(=O)Nc3ccccc32)cc1 | 2 |
| C/C=C/C=C/C=C\CC/C=C/C(=O)NCC(C)(C)O | -3 |
| CC1=C2[C@@H](OC1=O)[C@H](O)[C@]13[C@H]4C[C@@H](C(C)(C)C)[C@]15[C@@H](OC(=O)[C@@H]5O)O[C@@]23C(=O)O4 | -5 |
| CCOC(=O)[C@H](CCc1ccccc1)N[C@@H](C)C(=O)N(CC(=O)O)C1Cc2ccccc2C1 | 4 |
| C[C@@H]1C[C@H]2[C@@H]3CCC4=CC(=O)C=C[C@]4(C)[C@@]3(Cl)[C@@H](O)C[C@]2(C)[C@@]1(OC(=O)c1ccco1)C(=O)CCl | 4 |
| CCc1c(Cl)c(O)c(Cl)c(O)c1C(=O)O[C@H]1[C@H](O)[C@H](OC)[C@H](OC/C2=C\C=C\C[C@H](O)/C(C)=C/[C@H](CC)[C@@H](O[C@@H]3OC(C)(C)[C@@H](OC(=O)C(C)C)[C@H](O)[C@@H]3O)/C(C)=C/C(C)=C/C[C@@H]([C@@H](C)O)OC2=O)O[C@@H]1C | -11 |
| CS(=O)(=O)n1cc2c(n1)CN([C@H]1CO[C@H](c3cc(F)ccc3F)[C@@H](N)C1)C2 | -1 |
| CC(=O)CCc1ccc(O)cc1 | -4 |

Some of these lines once more (series 4):
| Compound | inhibition [%] |
| --- | --- |
| CCc1c(Cl)c(O)c(Cl)c(O)c1C(=O)O[C@H]1[C@H](O)[C@H](OC)[C@H](OC/C2=C\C=C\C[C@H](O)/C(C)=C/[C@H](CC)[C@@H](O[C@@H]3OC(C)(C)[C@@H](OC(=O)C(C)C)[C@H](O)[C@@H]3O)/C(C)=C/C(C)=C/C[C@@H]([C@@H](C)O)OC2=O)O[C@@H]1C | -11 |
| CCc1cc2c(cc1CC)CC(NC[C@H](O)c1ccc(O)c3[nH]c(=O)ccc13)C2 | -4 |
| CC(=O)Oc1ccc(C2(c3ccc(OC(C)=O)cc3)C(=O)Nc3ccccc32)cc1 | 2 |
| Nc1ccc2cc3ccc(N)cc3nc2c1 | -11 |
| CC(=O)O[C@H]1CC[C@]2(C)[C@H]3CC=C4[C@@H]5[C@@H](C)[C@H](C)CC[C@]5(C(=O)O)CC[C@@]4(C)[C@]3(C)CC[C@H]2C1(C)C | -5 |
| C[C@@H]1C[C@H]2[C@@H]3CCC4=CC(=O)C=C[C@]4(C)[C@@]3(Cl)[C@@H](O)C[C@]2(C)[C@@]1(OC(=O)c1ccco1)C(=O)CCl | 4 |
